Published values collected from several papers.
Lines come from different studies, so protocols differ. ± gives the spread as reported.
Cell line: human cells

With `CC(C)=CC[C@@H](O)C1=CC(=O)c2c(O)ccc(O)c2C1=O` the CC50 was 0.7 µM (cytotoxicity; 48 (unit not given)).
`O=C(Nc1ccc(F)cc1F)C(NC(=S)Nc1cc(C(F)(F)F)cc(C(F)(F)F)c1)c1ccccc1` (stereo not shown) has a CC50 of 9.76 µM.
With `CO[C@H]1/C=C/O[C@@]2(C)Oc3c(C)c(O)c4c(O)c(c(/C=N/N5CCN(C6CCCC6)CC5)c(O)c4c3C2=O)NC(=O)/C(C)=C\C=C\[C@H](C)[C@H](O)[C@@H](C)[C@@H](O)[C@@H](C)[C@H](OC(C)=O)[C@@H]1C` the CC50 was 138 µM.
`CCCCCCCCCCCCCCCC[n+]1ccn(Cc2ccccc2)c1C` has a CC50 of 5.2 µM.
For `N#Cc1c(Nc2ccc(F)cc2)n[nH]c1NS(=O)(=O)c1ccc2ccccc2c1`, the CC50 was 7.7 µM.
For `CNC(=O)c1cc(Oc2ccc3nc(N[C@@H]4CCCC[C@H]4O)sc3c2)ccn1`, the CC50 was greater than 20 µM.
The CC50 of `O=c1sn(-c2cccc3ccccc23)c(=O)n1Cc1ccccc1` is reported as 35 µM (cytotoxicity; 48 (unit not given)).
With `O=C(NN1C(=O)C2C3C=CC(C4CC34)C2C1=O)c1ccc(C(F)(F)F)cc1` (stereo not shown) the CC50 was greater than 106 µM (3 (unit not given)).
The CC50 of `CCCCCCNC(=O)n1cc(F)c(=O)[nH]c1=O` is reported as 4 µM (cytotoxicity; 48 (unit not given)).
With `CCCCCCCCCCCCCCCCOCCCOP(=O)(O)CO[C@H](CO)Cn1ccc(N)nc1=O` the CC50 was 7.42 ± 2.58 µM (3 (unit not given)).

Some of these lines once more:
For `CNC(=O)c1cc(Oc2ccc3nc(N[C@@H]4CCCC[C@H]4O)sc3c2)ccn1`, the CC50 was greater than 20 µM.
The CC50 of `O=c1sn(-c2cccc3ccccc23)c(=O)n1Cc1ccccc1` is reported as 35 µM (cytotoxicity; 48 (unit not given)).
